Measured values of several laboratories.
Each numbered part is a random draw from the data of one study; scales do not carry over between parts.
Sequence of UniProt P10721 (whole entry, unmodified, looked up): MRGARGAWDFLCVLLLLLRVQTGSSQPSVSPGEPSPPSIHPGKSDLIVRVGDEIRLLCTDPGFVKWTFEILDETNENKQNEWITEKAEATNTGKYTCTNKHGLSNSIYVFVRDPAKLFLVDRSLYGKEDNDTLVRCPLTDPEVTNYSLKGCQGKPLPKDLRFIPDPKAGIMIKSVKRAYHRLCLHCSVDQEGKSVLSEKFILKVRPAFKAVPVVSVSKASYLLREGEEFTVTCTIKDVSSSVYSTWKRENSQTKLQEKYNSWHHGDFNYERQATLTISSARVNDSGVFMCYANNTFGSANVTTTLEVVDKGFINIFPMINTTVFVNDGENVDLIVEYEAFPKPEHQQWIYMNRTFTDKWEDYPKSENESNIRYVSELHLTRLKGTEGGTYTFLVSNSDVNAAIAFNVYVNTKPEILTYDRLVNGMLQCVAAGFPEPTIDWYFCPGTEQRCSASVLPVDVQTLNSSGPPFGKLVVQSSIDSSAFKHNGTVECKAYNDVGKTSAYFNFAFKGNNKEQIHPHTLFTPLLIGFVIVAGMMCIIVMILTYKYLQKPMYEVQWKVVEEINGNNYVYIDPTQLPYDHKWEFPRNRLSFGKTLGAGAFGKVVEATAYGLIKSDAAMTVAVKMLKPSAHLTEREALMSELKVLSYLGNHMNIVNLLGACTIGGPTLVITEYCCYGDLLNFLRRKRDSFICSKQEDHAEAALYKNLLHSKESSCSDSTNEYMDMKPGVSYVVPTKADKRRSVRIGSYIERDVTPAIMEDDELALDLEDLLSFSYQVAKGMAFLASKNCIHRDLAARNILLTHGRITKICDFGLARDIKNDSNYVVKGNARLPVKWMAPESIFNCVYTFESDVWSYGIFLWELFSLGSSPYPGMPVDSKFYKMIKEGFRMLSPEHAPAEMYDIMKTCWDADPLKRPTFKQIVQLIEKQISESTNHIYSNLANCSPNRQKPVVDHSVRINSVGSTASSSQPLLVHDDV
Sequence of UniProt Q86Z02 (whole entry, looked up): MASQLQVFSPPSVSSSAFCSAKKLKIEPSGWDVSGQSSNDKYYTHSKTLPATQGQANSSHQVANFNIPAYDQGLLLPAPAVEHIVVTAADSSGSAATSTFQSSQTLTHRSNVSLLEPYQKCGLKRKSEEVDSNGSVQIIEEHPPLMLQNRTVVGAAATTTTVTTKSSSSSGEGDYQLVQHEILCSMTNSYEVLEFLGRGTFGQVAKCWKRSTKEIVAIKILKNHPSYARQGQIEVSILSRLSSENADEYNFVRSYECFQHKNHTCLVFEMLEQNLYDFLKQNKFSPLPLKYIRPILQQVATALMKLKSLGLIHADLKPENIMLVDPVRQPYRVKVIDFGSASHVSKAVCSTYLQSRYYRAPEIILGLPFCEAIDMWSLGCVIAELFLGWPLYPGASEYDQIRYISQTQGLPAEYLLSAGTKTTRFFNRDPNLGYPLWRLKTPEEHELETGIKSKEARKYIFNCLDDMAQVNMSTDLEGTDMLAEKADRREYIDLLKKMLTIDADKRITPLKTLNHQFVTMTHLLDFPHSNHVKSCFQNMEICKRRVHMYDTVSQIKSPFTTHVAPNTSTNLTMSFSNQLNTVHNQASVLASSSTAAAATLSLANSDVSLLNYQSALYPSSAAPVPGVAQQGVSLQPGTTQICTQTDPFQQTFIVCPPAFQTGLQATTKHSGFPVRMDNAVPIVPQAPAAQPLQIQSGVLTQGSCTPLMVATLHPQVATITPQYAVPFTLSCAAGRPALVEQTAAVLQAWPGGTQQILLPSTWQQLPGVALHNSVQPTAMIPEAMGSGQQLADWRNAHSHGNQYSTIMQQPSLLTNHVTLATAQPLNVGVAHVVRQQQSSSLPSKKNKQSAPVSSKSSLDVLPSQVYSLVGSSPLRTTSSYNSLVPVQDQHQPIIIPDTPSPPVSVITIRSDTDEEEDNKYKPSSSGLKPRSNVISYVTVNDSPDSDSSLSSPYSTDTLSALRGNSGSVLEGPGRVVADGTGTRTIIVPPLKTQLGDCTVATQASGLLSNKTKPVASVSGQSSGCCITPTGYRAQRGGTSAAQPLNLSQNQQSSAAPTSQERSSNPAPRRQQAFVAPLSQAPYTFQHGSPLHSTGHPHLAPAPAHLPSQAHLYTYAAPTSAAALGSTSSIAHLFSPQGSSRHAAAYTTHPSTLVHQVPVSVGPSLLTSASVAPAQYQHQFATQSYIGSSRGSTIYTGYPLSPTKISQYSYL
Sequence of UniProt Q9BQI3 (whole entry, looked up): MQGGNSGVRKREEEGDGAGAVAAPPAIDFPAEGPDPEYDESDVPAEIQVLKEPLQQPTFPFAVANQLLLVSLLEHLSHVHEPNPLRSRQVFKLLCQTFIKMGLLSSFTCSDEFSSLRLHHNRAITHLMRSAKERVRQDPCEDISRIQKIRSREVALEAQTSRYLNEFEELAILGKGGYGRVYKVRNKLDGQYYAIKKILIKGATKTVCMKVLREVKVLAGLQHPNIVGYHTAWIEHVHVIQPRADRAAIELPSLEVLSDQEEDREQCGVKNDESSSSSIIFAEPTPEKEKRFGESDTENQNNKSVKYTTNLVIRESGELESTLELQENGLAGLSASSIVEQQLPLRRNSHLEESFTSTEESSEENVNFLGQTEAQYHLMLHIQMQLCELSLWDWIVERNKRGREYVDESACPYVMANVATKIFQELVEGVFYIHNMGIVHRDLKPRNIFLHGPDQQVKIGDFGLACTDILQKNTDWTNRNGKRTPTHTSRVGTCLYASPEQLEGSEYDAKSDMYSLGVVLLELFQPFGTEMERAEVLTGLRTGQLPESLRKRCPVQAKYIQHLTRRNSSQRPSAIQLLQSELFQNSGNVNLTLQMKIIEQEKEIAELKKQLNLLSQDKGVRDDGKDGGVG
Sequence of UniProt Q86UE8 (whole entry, looked up): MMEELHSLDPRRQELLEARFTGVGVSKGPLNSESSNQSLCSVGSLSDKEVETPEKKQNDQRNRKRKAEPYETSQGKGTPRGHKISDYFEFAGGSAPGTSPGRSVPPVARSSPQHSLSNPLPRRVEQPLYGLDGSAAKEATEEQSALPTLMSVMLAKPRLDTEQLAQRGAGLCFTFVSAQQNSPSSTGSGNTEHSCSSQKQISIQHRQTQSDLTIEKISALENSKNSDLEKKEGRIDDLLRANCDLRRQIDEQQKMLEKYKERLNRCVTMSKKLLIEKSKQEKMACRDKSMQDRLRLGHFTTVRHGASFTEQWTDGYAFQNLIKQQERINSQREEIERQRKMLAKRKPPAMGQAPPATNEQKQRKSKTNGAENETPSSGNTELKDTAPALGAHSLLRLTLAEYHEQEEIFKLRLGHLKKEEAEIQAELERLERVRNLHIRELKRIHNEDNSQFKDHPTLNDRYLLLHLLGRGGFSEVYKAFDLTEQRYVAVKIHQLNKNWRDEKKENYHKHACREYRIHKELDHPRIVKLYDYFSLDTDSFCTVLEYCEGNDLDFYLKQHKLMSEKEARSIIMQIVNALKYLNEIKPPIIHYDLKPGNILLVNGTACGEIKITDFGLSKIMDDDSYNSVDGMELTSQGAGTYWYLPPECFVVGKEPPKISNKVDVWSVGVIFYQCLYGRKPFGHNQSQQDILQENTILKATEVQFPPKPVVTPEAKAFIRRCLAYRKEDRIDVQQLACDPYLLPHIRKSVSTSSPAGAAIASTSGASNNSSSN
Sequence of UniProt Q9BRS2 (whole entry, looked up): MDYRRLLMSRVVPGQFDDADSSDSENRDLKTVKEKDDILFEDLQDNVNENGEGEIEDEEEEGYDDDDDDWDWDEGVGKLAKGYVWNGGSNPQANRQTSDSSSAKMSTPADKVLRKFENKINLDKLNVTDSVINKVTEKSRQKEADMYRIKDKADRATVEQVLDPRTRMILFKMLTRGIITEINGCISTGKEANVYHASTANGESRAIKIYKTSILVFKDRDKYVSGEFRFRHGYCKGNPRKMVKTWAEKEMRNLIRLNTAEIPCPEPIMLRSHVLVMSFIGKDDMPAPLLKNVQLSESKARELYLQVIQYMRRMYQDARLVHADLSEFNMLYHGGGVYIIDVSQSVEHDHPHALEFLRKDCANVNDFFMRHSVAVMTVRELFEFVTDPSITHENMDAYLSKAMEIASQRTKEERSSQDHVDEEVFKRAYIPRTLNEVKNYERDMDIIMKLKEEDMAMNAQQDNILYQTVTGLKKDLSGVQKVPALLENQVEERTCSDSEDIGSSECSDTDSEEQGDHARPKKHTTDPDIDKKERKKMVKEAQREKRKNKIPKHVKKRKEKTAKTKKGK

Sample 1 — effect on: enzyme activity; action: inhibitor; tested at: 10 µM
Target: Calcium/calmodulin-dependent protein kinase type II subunit alpha (CAMK2A, Homo sapiens, UniProt Q9UQM7)
Sequence of UniProt Q9UQM7 (whole entry, looked up): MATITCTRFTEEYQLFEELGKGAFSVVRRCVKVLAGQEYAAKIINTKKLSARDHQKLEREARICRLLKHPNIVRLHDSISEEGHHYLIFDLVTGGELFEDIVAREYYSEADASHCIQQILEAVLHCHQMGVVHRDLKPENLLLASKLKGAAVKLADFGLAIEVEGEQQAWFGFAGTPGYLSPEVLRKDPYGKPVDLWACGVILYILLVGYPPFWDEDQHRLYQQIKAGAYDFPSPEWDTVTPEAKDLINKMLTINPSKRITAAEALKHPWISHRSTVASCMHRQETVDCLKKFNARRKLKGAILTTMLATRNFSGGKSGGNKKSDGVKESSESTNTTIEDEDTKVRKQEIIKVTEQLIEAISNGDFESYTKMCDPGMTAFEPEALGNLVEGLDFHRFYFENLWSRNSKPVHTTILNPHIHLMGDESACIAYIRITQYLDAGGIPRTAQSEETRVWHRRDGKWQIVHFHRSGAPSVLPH
| Structure (SMILES) | inhibition [%] |
| --- | --- |
| COc1cc(-c2oc3cc(O)cc(O)c3c(=O)c2O[C@@H]2O[C@H](CO)[C@@H](O)[C@H](O)[C@H]2O)ccc1O | 24 |
| CC(=O)Oc1ccc(C(=C2CCCCC2)c2ccc(OC(C)=O)cc2)cc1 | -8 |
| C[C@@H](N[C@H]1CCN(c2ccc(CC(=O)O)cc2)C1)c1cccc2ccccc12 | -4 |
| Nc1ccn([C@@H]2O[C@H](COP(=O)(O)OP(=O)(O)O)[C@@H](O)[C@H]2O)c(=O)n1 | -1 |
| O=C1N=C(O)NC1(c1ccccc1)c1ccccc1 | 0 |

Sample 2 — technique: competitive binding panel; tested at: 1 µM; reference: vehicle
Structure (SMILES): CN1CCN(C(=O)c2ccc(NC(=O)Nc3ccc(N(C)c4ccnc(Nc5ccc(CS(C)(=O)=O)cc5)n4)cc3)cc2)CC1
| target | assay | remaining binding [%] |
| --- | --- | --- |
| MAP4K1 (Homo sapiens, UniProt Q92918) | measured: HPK1 | 2.6 |
| HIPK1 (Homo sapiens, UniProt Q86Z02) | – | 72 |
| CAMK2A (Homo sapiens, UniProt Q9UQM7) | – | 86 |
| PRPF4B (Homo sapiens, UniProt Q13523) | measured: PRP4 | 88 |
| TBK1 (Homo sapiens, UniProt Q9UHD2) | – | 55 |

Sample 3 — cell line: Huh-7; tested at: 10 µM; time: 24 h
| SMILES | viability [%] |
| --- | --- |
| CC(C)Cc1ccc(C(C)C(=O)O)cc1 (stereo not drawn) | 98.5 |
| CCn1cc(C(=O)O)c(=O)c2cc(F)c(N3CCNCC3)cc21 | 99.1 |
| COc1cc([C@@H]2c3cc4c(cc3[C@@H](O[C@@H]3O[C@@H]5CO[C@@H](c6cccs6)O[C@H]5[C@H](O)[C@H]3O)[C@H]3COC(=O)[C@H]23)OCO4)cc(OC)c1O | 44.2 |
| O=C(O)CCc1nc(-c2ccccc2)c(-c2ccccc2)o1 | 102 |

Sample 4 — Compound: CSc1cccnc1N1CCN(Cc2nc3ccccc3[nH]2)CC1; tested at: 1 µM
| target | assay | remaining binding |
| --- | --- | --- |
| FRK (Homo sapiens, UniProt P42685) | cell-free assay, competition with immobilised ligand | 92% |
| TLK2 (Homo sapiens, UniProt Q86UE8) | cell-free assay, competition with immobilised ligand | 100% |
| NUAK1 (Homo sapiens, UniProt O60285) | cell-free assay, competition with immobilised ligand | 100% |
| ACVRL1 (Homo sapiens, UniProt P37023) | binding, competition with immobilised ligand | 100% |
| COQ8A (Homo sapiens, UniProt Q8NI60) | cell-free assay, competition with immobilised ligand | 100% |
| MYLK3 (Homo sapiens, UniProt Q32MK0) | cell-free assay, competition with immobilised ligand | 100% |
| GRK1 (Homo sapiens, UniProt Q15835) | cell-free assay, competition with immobilised ligand | 100% |
| PIK3CA (Homo sapiens, UniProt P42336, M1043I) | cell-free assay, competition with immobilised ligand | 94% |
| FLT3 (Homo sapiens, UniProt P36888, F691L/ITD) | cell-free assay, competition with immobilised ligand | 100% |
| CAMK1D (Homo sapiens, UniProt Q8IU85) | cell-free assay, competition with immobilised ligand | 100% |
| EIF2AK1 (Homo sapiens, UniProt Q9BQI3) | cell-free assay, competition with immobilised ligand | 93% |
| CDC42BPG (Homo sapiens, UniProt Q6DT37) | competition binding | 100% |
| EPHA4 (Homo sapiens, UniProt P54764) | cell-free assay, competition with immobilised ligand | 100% |
| Mast/stem cell growth factor receptor Kit, autoinhibited (KIT, Homo sapiens, UniProt P10721) | cell-free assay, competition with immobilised ligand | 72% |
| RIOK1 (Homo sapiens, UniProt Q9BRS2) | cell-free assay, competition with immobilised ligand | 100% |
| FGFR3 (Homo sapiens, UniProt P22607) | cell-free assay, competition with immobilised ligand | 100% |
| CAMK2G (Homo sapiens, UniProt Q13555) | cell-free assay, competition with immobilised ligand | 100% |
| CAMK1G (Homo sapiens, UniProt Q96NX5) | cell-free assay, competition with immobilised ligand | 100% |
| PIK3C2G (Homo sapiens, UniProt O75747) | cell-free assay, competition with immobilised ligand | 95% |
| LRRK2 (Homo sapiens, UniProt Q5S007) | cell-free assay, competition with immobilised ligand | 97% |
| ULK1 (Homo sapiens, UniProt O75385) | cell-free assay, competition with immobilised ligand | 88% |
| Ribosomal protein S6 kinase alpha-6, N-terminal kinase domain (RPS6KA6, Homo sapiens, UniProt Q9UK32) | cell-free assay, competition with immobilised ligand | 81% |
| STK32A (Homo sapiens, UniProt Q8WU08) | binding, competition with immobilised ligand | 100% |
| ALK (Homo sapiens, UniProt Q9UM73, L1196M) | cell-free assay, competition with immobilised ligand | 100% |
| PLK4 (Homo sapiens, UniProt O00444) | cell-free assay, competition with immobilised ligand | 84% |

Sample 5 — effect on: enzyme activity; action: inhibitor; tested at: 1 µM
SMILES: CC#CC(=O)N1CCC[C@H]1c1nc(-c2ccc(C(=O)Nc3ccccn3)cc2)c2c(N)nccn12
| target | inhibition |
| --- | --- |
| STK36 (Homo sapiens, UniProt Q9NRP7) | 0% |
| NTRK3 (Homo sapiens, UniProt Q16288) | 0% |
| KIT (Homo sapiens, UniProt P10721, D816V) | 0% |
| PAK2 (Homo sapiens, UniProt Q13177) | 19% |

Sample 6 — species: mouse; matrix: microsomes or S9; tested at: 2 µM; time: 0.5 h
| SMILES | remaining compound |
| --- | --- |
| Cc1ccc(N(CC(O)CN2CCCCC2)S(=O)(=O)c2ccc3ccccc3c2)cc1 (stereo not drawn) | 1.25% |
| CCc1cc(Nc2nc(Cl)ncc2OC)n[nH]1 | 45.7% |
| Cn1nc(C2CCCN2C(=O)COc2ccc(F)cc2)c2c1CCOC2 (stereo not drawn) | 9.57% |
| Clc1ccc(CCN2CCN(Cc3nc[nH]n3)CC2)cc1Cl | 94.8% |
| Nc1c(Br)cc(O)cc1Br | 50.5% |
| CN1CCC(N(C)C(=O)c2cc3cc(Br)cc(Br)c3o2)CC1 | 54.7% |

Further values, each from its own experiment — effect on: cell-free assay; tested at: 0.5 µM
Target: Cyclin-dependent kinase 9, with cyclin T1 (CDK9, Homo sapiens, UniProt P50750)
Sequence of UniProt P50750 (whole entry, looked up): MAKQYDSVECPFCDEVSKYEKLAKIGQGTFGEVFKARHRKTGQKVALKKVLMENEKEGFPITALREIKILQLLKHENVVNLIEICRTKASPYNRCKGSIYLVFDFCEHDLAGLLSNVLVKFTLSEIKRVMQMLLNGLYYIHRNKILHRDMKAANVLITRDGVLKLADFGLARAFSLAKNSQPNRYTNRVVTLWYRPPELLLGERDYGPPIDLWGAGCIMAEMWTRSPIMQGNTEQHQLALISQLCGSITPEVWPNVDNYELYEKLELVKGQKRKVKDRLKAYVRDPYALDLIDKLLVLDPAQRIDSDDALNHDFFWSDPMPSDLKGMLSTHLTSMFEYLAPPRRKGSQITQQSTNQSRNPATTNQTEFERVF
| SMILES | remaining signal [%] |
| --- | --- |
| COc1cc2ncnc(Nc3ccc(F)c(Cl)c3)c2cc1OCCCN1CCOCC1 | 87.3 |
| CS(=O)(=O)CCNCc1ccc(-c2ccc3ncnc(Nc4ccc(OCc5cccc(F)c5)c(Cl)c4)c3c2)o1 | 85.2 |

A few entries again (sample 4):
| target | assay | remaining binding |
| --- | --- | --- |
| RIOK1 (Homo sapiens, UniProt Q9BRS2) | cell-free assay, competition with immobilised ligand | 100% |
| PIK3C2G (Homo sapiens, UniProt O75747) | cell-free assay, competition with immobilised ligand | 95% |
| FRK (Homo sapiens, UniProt P42685) | cell-free assay, competition with immobilised ligand | 92% |
| STK32A (Homo sapiens, UniProt Q8WU08) | binding, competition with immobilised ligand | 100% |
| MYLK3 (Homo sapiens, UniProt Q32MK0) | cell-free assay, competition with immobilised ligand | 100% |
| CAMK2G (Homo sapiens, UniProt Q13555) | cell-free assay, competition with immobilised ligand | 100% |
| FGFR3 (Homo sapiens, UniProt P22607) | cell-free assay, competition with immobilised ligand | 100% |
| ACVRL1 (Homo sapiens, UniProt P37023) | binding, competition with immobilised ligand | 100% |
